Assay results from different studies.
Numbered parts are unrelated; each lists some results of a single study. Positions count from the first letter of the parent shown.

Block 1
Target: HLA class I histocompatibility antigen, A alpha chain, allele A*25:01 (Homo sapiens, UniProt P04439)
Effect on: peptide-MHC binding
Form: peptide
Concentration: concentration not given
| Molecule | binding |
| --- | --- |
| AQKLATKPV | inactive |
| LEYFQFVKKLL | inactive |
| SQVRVPTVF | inactive |
| HTAEIQQFF | active |
| DWMERIEDF | inactive |
| TVIRFWHAM | inactive |
| YILGFAIPI | inactive |
| SVMSTFFWE | inactive |
| CASSSDWFY | inactive |
| LQNFCQHLV | inactive |
| RVACRDVEV | inactive |
| AEDLADHHV | inactive |
| GMHDGTVGK | inactive |
| QAHMGIAGL | inactive |
| TTRAVNMEV | inactive |
| LPLKMLNIPSINVH | inactive |
| FLAFFSNGV | inactive |
| FLQQRKPPL | inactive |
| RASHFRKLF | inactive |
| KSAFYQSYL | inactive |
| MHYGYNRAN | inactive |
| LLIQGLKTV | inactive |
| WQDGGWQSV | inactive |
| LLDDGWAGE | inactive |
| SSDLRSWTF | inactive |

Block 2
Target: UBE2D4 UBC core domain (UniProt Q9Y2X8)
Technique: yeast two-hybrid
Sample: yeast
Notes: mostly zero background
Baseline: not given
Direction: higher = stronger interaction
B1: RNF182 RING domain (UniProt Q8N6D2); chain AESQASDELECKICYNRYNLKQRKPKVLECCHRVCAKCLYKIIDFGDSPQGVIVCPFCRFETCLPDDEV
B2: VPS8 RING domain (UniProt Q8N3P4); chain TRGLNPKQDYCSICLQQYKRRQEMADEIIVFSCGHLYHSFCLQNKECTVEFEGQTRWTCYKCSSSNKVGKLSE
B3: RNF103 RING domain (UniProt O00237); chain WPADMLHCTECVVCLENFENGCLLMGLPCGHVFHQNCIVMWLAGGRHCCPVCRWPSYKKKQPY
B4: ZNRF4 RING domain (UniProt Q8WWF5); chain VRTFTWHNDLCAICLDEYEEGDQLKILPCSHTYHCKCIDPWFSQAPRRSCPVCKQSVAATEDSF
B5: RUFY1 RING domain (UniProt Q96T51); chain QALKGHAWLKDDEATHCRQCEKEFSISRRKHHCRNCGHIFCNTCSSNELALPSYPKPVRVCDSCHTLLLQRCSSTAS
Target sequence (chain): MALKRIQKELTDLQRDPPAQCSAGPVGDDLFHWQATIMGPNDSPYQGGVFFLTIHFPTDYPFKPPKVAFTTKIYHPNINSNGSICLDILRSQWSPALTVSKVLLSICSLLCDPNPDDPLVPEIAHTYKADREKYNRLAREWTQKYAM
| Molecule | lacZ reporter activity |
| --- | --- |
| B1 (RNF182 RING domain) | 0 |
| B2 (VPS8 RING domain) | 0 |
| ASEEEFQFLRCQQCQAEAKCPKLLPCLHTLCSGCLEASGMQCPICQAPWPLGADTP (PML RING domain (UniProt P29590)) | 0 |
| B3 (RNF103 RING domain) | 16400 |
| ASPKIFQKTKCSICNSALELPSVHFLCGHSFHQHCFESYSESDADCPTCLPENRKVMDMI (VPS11 RING domain (UniProt Q9H270)) | 0 |
| EIKEYKARLTCPCCNTRKKDAVLTKCFHVFCFECVRGRYEARQRKCPKCNAAFGAHDFHR (RNF40 RING domain (UniProt O75150)) | 0 |
| B4 (ZNRF4 RING domain) | 13000 |
| B5 (RUFY1 RING domain) | 0 |

Block 3
Target: CCND2, cyclin fold, Cln2 fusion (human)
Technique: yeast growth competition, sequencing
Sample: yeast
Notes: strong parent motif
Baseline: not given
Direction: higher = stronger binding
Starting sequence: viral docking peptide; YKVKRRLVFGADD
| Substitution | normalised enrichment score |
| --- | --- |
| YKVKRDLVFGADD [R6D] | 0.47 |
| YKVKRRLVFEADD [G10E] | 2.21 |
| YKVKRRLVFGSDD [A11S] | 1.67 |
| YKVKFRLVFGADD [R5F] | 0.0747 |
| YKVKRRMVFGADD [L7M] | 0.704 |
| YKVKRRLVFGAID [D12I] | 0.677 |
| YKVKRRLWFGADD [V8W] | 0.314 |
| YKVKNRLVFGADD [R5N] | -0.398 |
| YKVKRRLVKGADD [F9K] | -0.161 |
| YKVKRRLVNGADD [F9N] | 0.138 |
| YKSKRRLVFGADD [V3S] | 0.799 |
| YKCKRRLVFGADD [V3C] | 1.97 |
| YKVKRRLVHGADD [F9H] | -0.0945 |
| YKQKRRLVFGADD [V3Q] | 0.126 |
| YKVKRRLNFGADD [V8N] | 1.29 |
| YKHKRRLVFGADD [V3H] | 0.297 |
| YKVVRRLVFGADD [K4V] | -0.00363 |
| YKVRRRLVFGADD [K4R] | 1.82 |
| YKVKSRLVFGADD [R5S] | 0.0442 |
| YKVKRRLVFGACD [D12C] | 0.815 |
| AKVKRRLVFGADD [Y1A] | 0.486 |
| YKVKRRLVFGRDD [A11R] | 1.31 |
| YKVKRRLVFGMDD [A11M] | 1.18 |
| YKVKRRLPFGADD [V8P] | -0.0521 |
| YKVKRRIVFGADD [L7I] | 1.64 |

Block 4
Target: Eukaryotic initiation factor 4A-I (EIF4A1, Homo sapiens, UniProt P60842, residues 1-406, full length assumed)
Chain of UniProt P60842 (whole entry, looked up): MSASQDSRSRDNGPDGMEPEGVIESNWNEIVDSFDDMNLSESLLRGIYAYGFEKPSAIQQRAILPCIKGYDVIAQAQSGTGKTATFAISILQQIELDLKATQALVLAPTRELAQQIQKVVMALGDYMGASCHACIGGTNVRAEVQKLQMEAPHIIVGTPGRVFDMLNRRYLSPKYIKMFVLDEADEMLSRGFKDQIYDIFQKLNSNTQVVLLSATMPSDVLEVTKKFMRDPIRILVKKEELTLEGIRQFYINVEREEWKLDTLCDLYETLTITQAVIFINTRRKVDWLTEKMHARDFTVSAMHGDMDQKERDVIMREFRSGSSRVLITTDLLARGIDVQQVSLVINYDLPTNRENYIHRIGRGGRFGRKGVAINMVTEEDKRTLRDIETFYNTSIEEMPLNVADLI
Technique: RNA Bind-n-Seq
Form: RNA
Sample: in vitro
Concentration: not given
Notes: 4-mer, random 30-nt RNA, single round
Together with: RocA, ADP, phosphate
Baseline: input library
Direction: higher = stronger binding
| Oligonucleotide | 4-mer enrichment [fold] |
| --- | --- |
| AGAA | 2.13 |
| AGUG | 1.77 |
| CAUU | 0.714 |
| UCGC | 0.577 |
| UACG | 0.78 |
| UUUU | 1 |
| GGAA | 1.49 |
| UCUG | 0.702 |

A few entries again (block 3):
| Substitution | normalised enrichment score |
| --- | --- |
| YKVKRRLNFGADD [V8N] | 1.29 |
| YKHKRRLVFGADD [V3H] | 0.297 |
| YKQKRRLVFGADD [V3Q] | 0.126 |
| YKVKRRLVFGACD [D12C] | 0.815 |
| YKVKRRLVFGMDD [A11M] | 1.18 |
| YKVKRRLVFEADD [G10E] | 2.21 |
| YKVKNRLVFGADD [R5N] | -0.398 |
| YKCKRRLVFGADD [V3C] | 1.97 |
| YKVKRRLVHGADD [F9H] | -0.0945 |
